# Results of several laboratories.
# Every numbered part comes from another study and shows a few of its results, in no order.

# Study 1
# Target: Interferon regulatory factor 3, full length, phosphomimetic (IRF3, Homo sapiens, UniProt Q14653, residues 1-427, S386D/S396D/S398D/S402D/T404D/S405D)
# UniProt Q14653, sequence (whole entry, unmodified, looked up): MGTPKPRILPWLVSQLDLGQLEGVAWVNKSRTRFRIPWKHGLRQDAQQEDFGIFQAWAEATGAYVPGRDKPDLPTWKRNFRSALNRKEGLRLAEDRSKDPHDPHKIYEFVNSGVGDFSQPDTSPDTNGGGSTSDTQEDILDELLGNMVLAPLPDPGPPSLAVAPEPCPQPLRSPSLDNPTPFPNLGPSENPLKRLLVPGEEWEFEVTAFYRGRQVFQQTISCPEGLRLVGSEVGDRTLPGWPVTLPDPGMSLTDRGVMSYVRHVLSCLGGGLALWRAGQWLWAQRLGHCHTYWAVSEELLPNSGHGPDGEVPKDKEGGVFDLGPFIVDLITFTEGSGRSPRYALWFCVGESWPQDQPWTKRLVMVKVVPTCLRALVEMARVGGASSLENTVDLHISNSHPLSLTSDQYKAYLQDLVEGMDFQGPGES
# Technique: protein-binding microarray
# Form: double-stranded DNA, one strand shown
# Medium: in vitro
# Concentration: 2540 nM top
# Setting: 60-bp whole probe
# Added: salmon DNA 0.4 mg/ml
# Reference: random background probes
# Reading: higher = stronger binding
# Shared flanks, not repeated: GCCTAGCAC … GTCTTGATTCGCTTGACGCTGCTG
Sequence,fitted relative affinity
GACGGTCTCCTACTGCTCACGTGCTAG,0.991 z-score
GACGGTTTCGACTTTCGGGCCGTGCTA,3.59 z-score
GAGGGTATCCTTTTCCTGACGTGCTAG,5.93 z-score
TCAGCTTTCCTTCTTGAACTGTGCTAG,7.41 z-score
CTTTGCCTCATCTTGCAGGTAGTGCTA,1.14 z-score
TCACATCTCCAAAGTCAGACTGTGCTA,1.19 z-score
GACGGTATCGGGACTGGGGGCGTGCTA,1.93 z-score
CATAGAGATGCCTGTCCTCTGTGCTAG,-0.334 z-score
GCCGGTTTCGGACTGGGGACGTGCTAG,4.78 z-score
TTTGGTCTCGGACTGGGTTAGTGCTAG,-0.0661 z-score
TTAGGACTGGGGTATCGGTCAGTGCTA,-0.506 z-score
TTCGATATCGGGTTTCGATTAGTGCTA,2.11 z-score
TACGGACTGCTTTTCCTGACGTGCTAG,-0.0523 z-score
CACTGACACCGATTTCATCACGTGCTA,0.276 z-score
GACGATATCGGGTTTGGAGACGTGCTA,0.22 z-score
GACGGTTTCTTTATCCTGACGTGCTAG,3.44 z-score
TAGTTTTACTTTCTATGTCTGTGCTAG,5.31 z-score
ATAGGTATCGGGACTGGGTTAGTGCTA,1.3 z-score
TGGGATTTTTAGTTAGAAAAGTGCTAG,-0.242 z-score
TCACTTTCCAACTCTGTTACTGTGCTA,7.01 z-score

# Study 2
# Target: RNA binding protein fox-1 homolog 2, RRM domain, GST-SBP tag (RBFOX2, Homo sapiens, UniProt O43251-10, residues 100-194)
# Technique: RNA Bind-n-Seq
# Form: RNA
# Medium: in vitro
# Concentration: 365 nM
# Setting: natural RNA segment, single round, ends assumed
# Reference: no-protein control
# Reading: higher = stronger binding
# Target sequence (chain): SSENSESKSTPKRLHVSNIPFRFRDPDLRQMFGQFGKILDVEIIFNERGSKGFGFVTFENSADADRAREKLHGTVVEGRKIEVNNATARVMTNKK
Sequence,RBNS enrichment (R)
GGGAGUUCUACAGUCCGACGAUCUGAUGUCAGUGCUGACUGAGUCCAUGCUAACUGAGAUCUGUAGGCAGAGCUCUGCCCUGUAGCUCCCUGCCUCAGUUUAUCUUUGCAAUACAAAGCAAAUCCUUCCCCAGUGGAAUUCUCGGGUGCCAA,0.314
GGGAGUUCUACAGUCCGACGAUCUUCAUUUACUUCCAAAGAGGCAAAAGCAGCUGGAAUUGGCUUACAGCACAUGCUUUGUUUCAUGUUAUGGGUGAGGACCUACAUACACUCUUACUUUAGCAGUCACUUAAUGGAAUUCUCGGGUGCCAA,0.616
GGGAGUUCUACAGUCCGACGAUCCCCUGAGUUGUGUUGAAGUCCCCUGGACAAUGAGCAGGGGUGGCAGAGGACAGCAGCAGCCACUGCCCUCACCUUUAACCCCUUGCCUUGCCUCCCAGGGAUUUGUGAGCUGGAAUUCUCGGGUGCCAA,0.463
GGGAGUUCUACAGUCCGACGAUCUGGUGCCAGCACGGGAUCCCUGAAGUGACUCAGCCAGGCAGACAUGAGACAUGGCGGAGUGUCCAAAUGGAUCCUUUAUUGGUGGUAGAGCAAAAAAACCCAAACACGAUUGGAAUUCUCGGGUGCCAA,0.306
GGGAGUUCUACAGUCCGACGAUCGUCAGAACACGGUUGACCUGCCGCCUUCUUGAACCUGGUGGCCCCCGUUGGAACUAUCAGUGGCGUCUCCCAUGCACACGCCCUCUGCUUUCUCUUUCCUAGACUCGCGGUGGAAUUCUCGGGUGCCAA,0.425
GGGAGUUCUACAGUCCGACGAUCAGCUGGGUAGCCUCUCUGAGCUGGUUUCCUGCCCCAAAGGCUGGCUUCCACCAUCCAGGUGCACCACUGAAGUGAGGACACACCGGAGCCAGGCGCCUGCUCAUGUUGAAUGGAAUUCUCGGGUGCCAA,0.175
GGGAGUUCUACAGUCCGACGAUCGCCAGGAGAGGAUAAUUGGAAGUUCUCUUGGACCUUACCUUAUGUGCCUUUCUUCAUUGCUGAUUUUAAUCUGUAUCCUUUCACUGUAAUAAACUGUAACUAUGAGUGCAUGGAAUUCUCGGGUGCCAA,1.4
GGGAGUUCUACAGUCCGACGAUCUCAAGAAGUGCCUAAAAAUGGAUUUGUGUUGAUUUUAAGCCCAUCUAAUAAAUUAUAUGUAUUUUCUUGGUAUCGUAUGGCUUGUCUUAACUGAUGACACAGCCUAGAGGUGGAAUUCUCGGGUGCCAA,0.357
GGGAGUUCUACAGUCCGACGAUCUUUUUUUUUUUUAAUUUGGUCAUGGGGACCAAGGAGAAGGCAUGAAUCCCUGUAUUUGGCUCUUGCAGCCUCAGGCACUGUGCCUACUCUCCAGGUCAUGUCCCUGUGGUUGGAAUUCUCGGGUGCCAA,1.41
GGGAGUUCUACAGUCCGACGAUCCAGUGCUGCGGCGCUGUCUUUGCAGCAUUGCCAUGUCACCGUAGCCCCCUUCACUCUUGGAAGUUUGGGGCUUCAAGGUUUAUUCUGGCAAGAACACCUCGGAGCCACUGUGGAAUUCUCGGGUGCCAA,0.267
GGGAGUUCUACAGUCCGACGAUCACACAGAGCAGCGUAGACAUUUGUGAGCUUCGGUGCUGUUCAGUGCCUGCUUCUUCAUCACCUUAAUUUCUGCCAUAACCUGGACUUCGCUGACUGUGUGACUGCCCUGCUGGAAUUCUCGGGUGCCAA,1.18
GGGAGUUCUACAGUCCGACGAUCAGAUGUGGCAAGAUCACCAUUAGCAAAUGGAAAUUACAUUUGAAAGCCAUUAGACUUAUAGGUGAUGCAAGCAUCUAAGAGAGAGGUUAAUCACACUAUAGAGGCAUAAGUGGAAUUCUCGGGUGCCAA,0.451

# Study 3
# Target: Histone acetyltransferase KAT6A, winged helix 2, GST fusion (KAT6A, Homo sapiens, UniProt Q92794, residues 85-181)
# Technique: protein binding microarray
# Form: double-stranded DNA, one strand shown
# Medium: in vitro
# Concentration: not given
# Setting: 8-mer, flanks averaged, mean of 2 arrays, mostly near background
# Reference: not given
# Reading: higher = stronger binding
# Construct (chain): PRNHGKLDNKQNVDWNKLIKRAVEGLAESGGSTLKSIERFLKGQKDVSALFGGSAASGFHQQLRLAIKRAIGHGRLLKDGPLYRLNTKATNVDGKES
Sequence,E-score
CATAATGG,-0.141
ACGATTCG,0.0137
CGCGCGGA,0.237
ATACTTTG,0.0531
GACCGGCA,0.0708
AGTTAAAG,0.046
ATTACAAC,-0.101
ATGTCCGC,-0.106
ATAATCCA,-0.0673
CATGTGCA,-0.0996
CCGCCGGA,0.119
AATACTCA,0.129
CCCAACAC,-0.135
CGGGCGCA,0.33
CGGGCAGC,0.204
AAGTGTCT,-0.0903
AGTATACG,-0.0461
CTGGGGGC,-0.00401
AGGCTCGG,0.0231
ACGCCTAC,-0.118
ACATGGAT,-0.0423
CAACGGCC,0.012
GAACAAAA,0.0503
AAGCCCCG,-0.124
ATGAGGCA,0.0144

# Study 4
# Target: RING finger protein unkempt homolog, zinc fingers 1-6, GST-SBP tag (UNK, Homo sapiens, UniProt Q9C0B0, residues 30-357)
# Technique: RNA Bind-n-Seq
# Form: RNA
# Medium: in vitro
# Concentration: not given
# Setting: RNA with constant flanks, ends assumed
# Reference: input RNA pool
# Reading: higher = stronger binding
# Residues (chain): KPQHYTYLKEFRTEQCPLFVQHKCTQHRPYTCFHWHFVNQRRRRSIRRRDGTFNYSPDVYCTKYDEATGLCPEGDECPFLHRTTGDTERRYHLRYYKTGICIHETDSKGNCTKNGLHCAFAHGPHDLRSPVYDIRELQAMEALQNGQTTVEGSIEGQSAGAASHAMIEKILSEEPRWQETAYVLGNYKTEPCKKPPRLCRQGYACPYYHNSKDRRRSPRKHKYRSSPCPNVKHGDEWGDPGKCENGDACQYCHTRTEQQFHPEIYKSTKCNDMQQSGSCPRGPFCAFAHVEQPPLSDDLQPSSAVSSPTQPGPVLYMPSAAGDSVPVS
Sequence,bound/input enrichment
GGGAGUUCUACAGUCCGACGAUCCUCAGCAAUGUGUCUUCCACGGGCAGCAUCGACAUGGUGGACUCACCACAGCUUGCCACACCCGCCGAUGAAGUGUCUGCUUCCUUGGCCAAGCAGGGUUUGUGAUCAGGCUCCCAGGGCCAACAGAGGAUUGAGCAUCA,0.0807 ratio
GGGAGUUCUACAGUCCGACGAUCCCCAUGCUUUUAUGGACACUAGGUAAAACGCCUUCAGCUUAAAAUUUUUGUUAAAUAAUUCCGUUUAUUUUAUUGUUAUCUUCCAGGUGUCUAAAUCUCCAGUCUGUCUGUUGUACUGGUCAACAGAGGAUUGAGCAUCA,2.57 ratio
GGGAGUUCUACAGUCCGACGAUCAAUGCAGUUAUAUUUGGACCAGAAGGGACACCCUUUGAAGAUGGUACUUUUAAACCCGUAACCGAAUUUUCUGAAGAAUAUCCAAAUAAACCACCAACCGUUAGGUUUUUAUCCAAAAUGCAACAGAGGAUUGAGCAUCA,0.816 ratio
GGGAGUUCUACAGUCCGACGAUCAUAUCUUUCGUUUUGGCUUGGUUCGAGGAAGGGGAAGAAACGAUUACAGCCUUUGCCGAGCCGUUUGUAAUUCUGCUUAUCUUGGUAGCCAAUGCAAUCGUGGGUGUGUGGCAGGAAAGACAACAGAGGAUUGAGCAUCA,0.334 ratio
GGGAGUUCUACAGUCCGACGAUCAUCAGAAGAGUGAAAUCUCAUAAAGAAUUUUUGAAUAAAACAACACACCAGCUUUUAUUUGUCCGGCAUCAGUUCAAAAUAGCUUUCUUCAGUGAGUUGAAACAAGAUACACAAAAUGCGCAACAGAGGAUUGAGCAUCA,0.273 ratio
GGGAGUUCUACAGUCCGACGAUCUAUAGUAUAGAUUUUAUUUUUAAGAAGUUUAUAUAAUUCUUUUGUGAACCAAUAUGUAAAACCCGAAUAUUUAUUAAACUAAUAAUAUGUAUUAGUAUCAAUAAAAUAUGUAUUUAUUUUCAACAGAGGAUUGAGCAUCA,3.32 ratio
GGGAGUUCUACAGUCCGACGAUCCAGGUAGGUGUUUCUCUGUUAUGUAAGCAAUAACUUUUUCUGUGUCUUAUGGAGUAUGACCCGCAAUUAUUUAUUUCCAUGCUAGACGGUUCUUUGCAUGUGGGUUCCUUAUAGGUGCAGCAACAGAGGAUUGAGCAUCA,0.59 ratio
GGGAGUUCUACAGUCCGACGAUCGUUCGCCUGUAUCGCAAAGCAUUAGAAGUCUUCCCAGAGUUUGCUGCUGCACAUUCCAAUUCCGCAAGUGUACUGCAACAGCAGGGCAAGCUGCAGGAAGCACUGAUGCACUAUAAAGAACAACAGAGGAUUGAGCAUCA,0.123 ratio
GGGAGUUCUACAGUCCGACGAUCAUGGACCUGCAGCUCCACAUUUACCAGCUGAAAACCCUGAUCAGGAUGGUAAAGAAAACCUACCGAGAUUUCCGAUUGCAAGGGGUCCUGGAUUCCACCUUAAACAGCAAGACCUAUGAGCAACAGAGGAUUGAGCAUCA,0.221 ratio
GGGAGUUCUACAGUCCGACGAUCACUGGGUUUGGAUUAGGAAUUGUUUUCUCCCUCACCUUCUUUAAGAGAAGAAUGUGGCCAUCCGCCUUUGGUUCUGGCGUGGGAUUGGGAAUGGCCUACUCCAACUGUCAGCAUGACUUUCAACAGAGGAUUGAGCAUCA,0.305 ratio
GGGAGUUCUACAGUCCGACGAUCCUGAAGGAAACAGCAUUUAAAUUUAAAGCCCUAAAGAAGGUUGCGCAGUUAGCAGUUAUAAACCGCCUGGAAAAGGCAUUUUGGAACUGGGUAGAAAAUUAUCCAGAUGAAUUUACAAAACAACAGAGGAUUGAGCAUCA,1.5 ratio

# A few entries again (study 3):
Sequence,E-score
GACCGGCA,0.0708
AGGCTCGG,0.0231
AAGTGTCT,-0.0903
AATACTCA,0.129
CGGGCGCA,0.33
